Assay results gathered from unrelated publications.
A part holds a random share of what one study measured.

Block 1 — method: protein binding microarray; form: double-stranded DNA, one strand shown; sample: in vitro; concentration: not given; reference: not given; direction: higher = stronger binding
Target: Histone acetyltransferase KAT6A, winged helix 1, GST fusion (KAT6A, Homo sapiens, UniProt Q92794, residues 1-85)
Setting: 8-mer, flanks averaged, mean of 2 arrays, mostly near background
Target sequence (chain): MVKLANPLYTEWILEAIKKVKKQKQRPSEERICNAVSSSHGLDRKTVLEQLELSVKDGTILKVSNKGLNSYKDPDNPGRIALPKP
`CTCGTGAA` gave an E-score of -0.294.
The E-score of `GTACCCTA` is reported as -0.101.
`GGAAGTTA` gave an E-score of 0.0534.
With `CTCCCTGC` the E-score was -0.105.
For `AACGAGAG`, the E-score was -0.029.

Block 2 — method: protein-binding microarray; form: double-stranded DNA, one strand shown; sample: in vitro; concentration: 250 nM; setting: 60-bp whole probe; added: salmon DNA 0.4 mg/ml; reference: random background probes; direction: higher = stronger binding; all sequences stand within: GCCTAGCAC … GTCTTGATTCGCTTGACGCTGCTG
Target: Interferon regulatory factor 5, full length, phosphomimetic (IRF5, Homo sapiens, UniProt Q13568-2, residues 1-514, K96S/S451D/S453D/S456D/S462D)
The log fluorescence of `GACAATATCAGTTTCGAGACGTGCTAG` is reported as 7.16 z-score.
`GACTGACTGGACACTGGGGACGTGCTA` gave a log fluorescence of -0.294 z-score.
`TTAGGTTCCCTTTTCCTTGAGTGCTAG` gave a log fluorescence of 0.395 z-score.
`TTAGGTCTCCTACTGTTTTAGTGCTAG` gave a log fluorescence of 0.16 z-score.
For `GACGGATTCGGGACTGGGGACGTGCTA`, the log fluorescence was -0.248 z-score.
`TCAGCTGTTTTTCTCACCACGTGCTAG` gave a log fluorescence of 0.534 z-score.
With `ATCATTTTTGCTTACGATGCGTGCTAG` the log fluorescence was 1.24 z-score.

Block 3 — method: aptamer microarray, sandwich; form: DNA with 2'F-ANA; sample: in vitro; concentration: 200 nM; added: Cy3 exosite-II aptamer, 400 nM; direction: higher = stronger binding
Target: Prothrombin, mature alpha-thrombin (F2, Homo sapiens, UniProt P00734)
Setting: whole 15-mer aptamer, many near background
`GGTTGGTGTGGTTGG (2'F-ANA at 4 6 7 8 11 12 14)`: “mean fluorescence intensity” 116 a.u.
`GGTTGGTGTGGTTGG (2'F-ANA at 1 2 8 9 10 12 13 14 15)`: “mean fluorescence intensity” 53.8 a.u.
For `GGTTGGTGTGGTTGG (2'F-ANA at 1 3 4 7 9)`, “mean fluorescence intensity” read 222 a.u.
`GGTTGGTGTGGTTGG (2'F-ANA at 2 5 8 9 12 13 14 15)` — result for “mean fluorescence intensity”: 47.6 a.u.

Other studies, line by line
For `PhoQ, residues 284 288 289 292 302 303 TLASMF`, the fold induction was 10.6 (PhoP, residues 12 14 15 18 19 NYFTV (Escherichia coli, UniProt P23836); Sort-seq, item: YFP reporter; E. coli; PhoQ-PhoP variant library, added: 10 µM Mg2+; reference: high Mg2+ state, higher = stronger signaling).

Some of these lines once more (block 1):
The E-score of `GTACCCTA` is reported as -0.101.
`GGAAGTTA` gave an E-score of 0.0534.
With `CTCCCTGC` the E-score was -0.105.
